# Assay results from different studies.
# Compare with care: the assays were run in different laboratories.
# KIT L576P: Mast/stem cell growth factor receptor Kit (KIT, Homo sapiens, UniProt P10721, L576P)
# KIT V559D/V654A: Mast/stem cell growth factor receptor Kit (KIT, Homo sapiens, UniProt P10721, V559D/V654A)
# KIT: Mast/stem cell growth factor receptor Kit (KIT, Homo sapiens, UniProt P10721)
Compound,target,test,setting,how to read,remaining binding [%]
CNC(=O)C1CCN(c2cc(C)c(F)cc2NC(=O)c2ccc(-c3cc(O)ccc3C)c(C)c2)CC1,"Mast/stem cell growth factor receptor Kit (KIT, Homo sapiens, UniProt P10721, A829P)","binding, competition with immobilised ligand",1 µM,,74
CCN1CCN(Cc2ccc(C(=O)Nc3ccc(C)c(NCc4cnc5[nH]ccc5c4OC)c3)cc2C(F)(F)F)CC1,KIT L576P,"binding, competition with immobilised ligand",1 µM,,0.8
CC(C)=CC1OC(C)(C)C2C=C3C(=O)C(Cl)=CC(O)C3C3C(O)C4OC4C(=O)C132 (stereo not drawn),KIT V559D/V654A,"cell-free assay, competition with immobilised ligand",10 µM,,69
C=CC(=O)N1CCc2ccc(-n3c(=O)ccc4cnc5ccc(-c6cnn(C)c6)cc5c43)cc21,KIT,KINOMEscan,1 µM,baseline: DMSO control,62
Nc1ncc2c(n1)-c1c([nH]c3ccc(C4=CCOCC4)cc13)CCC2,"Mast/stem cell growth factor receptor Kit (KIT, Homo sapiens, UniProt P10721, D816H)","binding, competition with immobilised ligand",1 µM,,84
C=CC(=O)N1CCCC(n2c(=O)c3ncccc3n(Cc3ccc(Oc4ccccc4)cc3)c2=O)C1 (stereo not drawn),KIT L576P,"cell-free assay, competition with immobilised ligand",1 µM,,100
CN1CCN(Cc2ccc(NC(=O)c3cccc(C#Cc4cnc(N)c5ncccc45)c3)cc2C(F)(F)F)CC1,"Mast/stem cell growth factor receptor Kit (KIT, Homo sapiens, UniProt P10721, D816V)","cell-free assay, competition with immobilised ligand",0.5 µM,,1.6
Cc1cnc2nc1Nc1cccc(c1)COC/C=C/COCc1cc(ccc1OCCN1CCOCC1)N2,KIT L576P,binding,0.1 µM,,11
COc1c(Cl)cccc1Nc1c(-c2ccncc2C#C[C@@]2(C)CCCN2C(=O)/C=C/CN(C)C)[nH]c2c1C(=O)NCC2,KIT V559D/V654A,"binding, competition with immobilised ligand",3 µM,,85
CCN1CCN(Cc2ccc(NC(=O)c3ccc(C)c(NC(=O)c4cncc(-c5cccs5)c4)c3)cc2C(F)(F)F)CC1,KIT,"binding, competition with immobilised ligand",1 µM,,0
CNC1C[S+]2CC[S+]3CC[S+](C1)[Ru-4]321([N]=C=S)[n]2c3ccc(OC)cc3c3c4c(c5cc(F)c[n+]1c5c32)C(=O)NC4=O (stereo not drawn),"Mast/stem cell growth factor receptor Kit (KIT, Homo sapiens, UniProt P10721, V559D)",KinomeScan,0.1 µM,baseline: untreated,53
Cc1ccc(-c2c(/C=C(\C#N)C(=O)NC(C)C)n(CCCO)c3ncnc(N)c23)cc1,KIT V559D/V654A,"cell-free assay, competition with immobilised ligand",1 µM,,96
